Measured values of several laboratories.
A part holds a random share of what one study measured. Changes are numbered by the printed parent chain.
Chain of UniProt P28335 (whole entry, looked up): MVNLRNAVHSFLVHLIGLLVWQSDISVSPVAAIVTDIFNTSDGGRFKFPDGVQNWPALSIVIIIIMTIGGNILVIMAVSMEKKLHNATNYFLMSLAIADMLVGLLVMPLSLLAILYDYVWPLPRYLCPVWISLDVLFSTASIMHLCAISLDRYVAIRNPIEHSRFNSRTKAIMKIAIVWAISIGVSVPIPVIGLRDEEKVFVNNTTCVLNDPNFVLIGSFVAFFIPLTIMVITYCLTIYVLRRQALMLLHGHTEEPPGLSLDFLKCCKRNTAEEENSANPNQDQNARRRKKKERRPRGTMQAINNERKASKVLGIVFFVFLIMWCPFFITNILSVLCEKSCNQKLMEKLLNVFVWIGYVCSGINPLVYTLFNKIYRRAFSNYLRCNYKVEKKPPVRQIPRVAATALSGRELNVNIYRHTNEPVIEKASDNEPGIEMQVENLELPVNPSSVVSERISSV
Chain of UniProt P06493 (whole entry, looked up): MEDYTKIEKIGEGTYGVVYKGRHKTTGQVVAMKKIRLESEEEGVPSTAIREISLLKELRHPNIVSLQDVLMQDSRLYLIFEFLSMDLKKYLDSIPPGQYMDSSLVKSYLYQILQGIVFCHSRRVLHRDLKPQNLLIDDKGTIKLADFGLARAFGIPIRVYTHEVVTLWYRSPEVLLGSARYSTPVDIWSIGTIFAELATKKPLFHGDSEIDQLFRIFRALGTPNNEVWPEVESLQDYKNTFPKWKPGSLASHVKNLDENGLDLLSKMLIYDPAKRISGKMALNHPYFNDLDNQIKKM
Chain of UniProt Q9UQM7 (whole entry, looked up): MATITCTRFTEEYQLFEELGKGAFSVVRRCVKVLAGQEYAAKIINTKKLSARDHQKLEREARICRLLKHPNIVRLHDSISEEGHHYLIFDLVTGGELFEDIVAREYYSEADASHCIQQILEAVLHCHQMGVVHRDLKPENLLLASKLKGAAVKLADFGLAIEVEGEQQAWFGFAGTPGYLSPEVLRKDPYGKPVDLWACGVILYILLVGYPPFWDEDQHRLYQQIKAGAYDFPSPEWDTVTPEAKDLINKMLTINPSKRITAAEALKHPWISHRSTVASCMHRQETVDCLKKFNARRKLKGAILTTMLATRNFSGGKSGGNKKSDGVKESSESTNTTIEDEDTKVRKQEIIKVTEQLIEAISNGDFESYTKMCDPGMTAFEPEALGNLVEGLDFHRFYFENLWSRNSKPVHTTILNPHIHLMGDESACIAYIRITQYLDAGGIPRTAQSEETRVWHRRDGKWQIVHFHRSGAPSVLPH

Sample 1
Target: CCNF, cyclin fold, Cln2 fusion (human)
Method: yeast growth competition, sequencing
Matrix: yeast
Notes: strong parent motif
Baseline: not given
Reading: higher = stronger binding
Measurement: normalised enrichment score
Parent: viral docking peptide; KKVKRRLFETREL
KKVARRLFETREL [K4A]: 7.92
KKVKKRLFETREL [R5K]: 2.77
KKVKKRLLETREL [R5K F8L]: 0.943
KKVKARLFETREL [R5A]: 1.15
KKVKRRLFETREA [L13A]: 7.52

Mixed results
HLA class I histocompatibility antigen, A alpha chain allele A*26:01: HLA class I histocompatibility antigen, A alpha chain, allele A*26:01 (Homo sapiens, UniProt P04439)
LYLQMNSL
binding (HLA class I histocompatibility antigen, A alpha chain allele A*26:01; peptide-MHC binding; peptide; concentration not given): inactive

Cc1nc(N2CC[C@@H](O)C2)ncc1-c1cc(C(F)(F)F)cc2[nH]ncc12
inhibition (HTR2C (Homo sapiens, UniProt P28335); binding, radioligand binding; 10 µM): -0.722%

COC[C@@]12CC[C@H](OC)[C@]34C([C@H]([C@H](OC)[C@H]13)[C@]1(O)[C@H]3[C@@H](OC(=O)c5ccccc5)[C@](O)(C[C@H]34)[C@@H](OC)[C@@H]1O)N(C)C2
inhibition (CAMK2A (Homo sapiens, UniProt Q9UQM7); enzyme activity, inhibitor; 10 µM): -16%

MTYKAAVL
binding (HLA class I histocompatibility antigen, A alpha chain allele A*26:01; peptide-MHC binding; peptide; concentration not given): inactive

COc1ccc2c(c1)/C(=C/c1cnc[nH]1)C(=O)N2
remaining activity (Cyclin-dependent kinase 1, with cyclin B (CDK1, Homo sapiens, UniProt P06493); enzyme activity, inhibitor; 0.5 µM; baseline: control): 35.9%

Some of these lines once more (sample 1):
KKVKKRLFETREL [R5K]: 2.77
